Experimental data gathered from unrelated publications.
Protocols differ between the studies behind these lines. Several values in a cell are separate wells, animals, samples, runs or records. In brackets after ≈: the same amount, converted by molar mass.

| SMILES | assay | system | setting | how to read | measurement | result |
| --- | --- | --- | --- | --- | --- | --- |
| CN(O)C(=O)CCC(=O)NCCCN(CCCCN(CCCNC(=O)CCC(=O)N(C)O)C(=O)CCC(=O)N(C)O)C(=O)CCC(=O)N(C)O.[89Zr] |  | mouse, lung | 24 h |  | tracer uptake | 0.01 %ID/g |
| CC[C@H](C)[C@@H]1NC(=O)[C@H](Cc2ccc(O)cc2)NC(=O)CCCSC[C@@H](C(=O)N(CC(=O)N[C@@H](CC(C)C)C(=O)NCC(N)=O)Cc2ccc(F)cc2)NC(=O)[C@H](CC(N)=O)NC(=O)[C@H](CCC(N)=O)NC1=O |  | human | intranasal, 200 µg, 11 repeated doses |  | subjects with any TEAE | 67% |
| CN(C)S(=O)(=O)c1ccc(S(=O)(=O)N2CCC(n3c(=O)[nH]c4ccccc43)CC2)cc1 | HPLC | 20% Intralipid | 24 h, 20 °C |  | solubility | 50 µg/mL (≈ 108 µM) |
| O=C1NCC(COc2nccc3c(NCc4ccccc4)cc(Cl)nc23)O1 (stereo not shown) |  | C57BL/6 mouse, heart | oral, 30 mg/kg, 0.5 h | relative to: heart over plasma | tissue/plasma ratio | 0.5 |
| CCC(=O)N(C)c1ccc(Cl)c(Cl)c1 |  | mouse C57BL/6, female, plasma | oral, 10 mg/kg, 4 h, 2 of 3 mice below LOQ |  | plasma concentration | 10.4 ng/mL |
| CCCCC/C=C\CCCO[Si](CCCCN(C)CCO)(OCCC/C=C\CCCCC)OCCC/C=C\CCCCC |  |  | pH 5.5, formulated |  | zeta potential | 3.28 mV |
| C=C(NC(=O)c1csc(-c2nc3c(cc2O)-c2nc(cs2)C(=O)NC(C(C)O)C(=O)NC(=C(C)OC)c2nc(cs2)C(=O)NC2c4nc(cs4)C(=O)NC(COC(=O)c4c5c6c(cccc6n4O)COC(=O)C(OC4CC(C)(O)C(N(C)C)C(C)O4)C2OC5)c2nc-3cs2)n1)C(N)=O (stereo not shown) |  | Sprague-Dawley rats, both sexes, plasma | intravenous infusion, 6 mg/kg |  | AUC(0-inf) | 2100 ng·h/mL |
| CCC(C(=O)Nc1ccc(C(N)=O)c(F)c1)n1cc(OC)c(-c2cc(Cl)ccc2-n2cc(C(F)(F)F)nn2)cc1=O (stereo not shown) |  | male humans | oral, 50 mg, fasted |  | subjects with any adverse event | 7.1% |
| CC[C@H](C)[C@H](NC(=O)[C@H](CCCCN)NC(=O)[C@H](CCC(=O)O)NC(=O)[C@H](CO)NC(=O)[C@H](Cc1ccccc1)NC(=O)[C@H](CC(C)C)NC(=O)[C@H](CCC(N)=O)NC(=O)[C@H](CO)NC(=O)[C@H](C)NC(=O)[C@H](CCCCN)NC(=O)[C@H](Cc1c[nH]cn1)NC(=O)[C@H](Cc1c[nH]c2ccccc12)NC(=O)[C@H](CCC(N)=O)NC(=O)[C@H](CCCCN)NC(=O)[C@H](CCCCN)NC(=O)[C@H](CC(C)C)NC(=O)CNC(=O)[C@H](C)NC(=O)[C@@H](NC(=O)[C@H](CO)NC(=O)[C@@H](N)CCSC)C(C)C)C(=O)N[C@@H](CO)C(=O)NCC(=O)N[C@@H](C)C(N)=O |  | water |  |  | folding free energy | 6.83 kcal/mol |
| COc1cccc(OC)c1-c1cc(C(=O)NC2(C(=O)O)C3CC4CC(C3)CC2C4)nn1-c1ccc(C(=O)N(C)CCCN(C)CCCN(C)C(=O)[C@H](CCCCNC(=O)[C@H](CC(C)C)NC(=O)C2OC2C(=O)O)NC(=O)CN2CCN(CC(=O)[O-])CCN(CC(=O)[O-])CCN(CC(=O)[O-])CC2)cc1C(C)C.[177Lu+3] (mixture of isomers) |  | mouse HT-29 xenograft | 72 h, biodistribution | relative to: tumour over small intestine | tumour-to-small intestine ratio | 26 |
| CC(C)C[C@@H]1NC(=O)[C@H](C(C)C)NC(=O)[C@H](Cc2c[nH]c3ccccc23)NC(=O)[C@@H]2CSSC[C@H](NC(=O)[C@H](Cc3ccc(O)cc3)NC(=O)[C@H](C(C)C)NC(=O)[C@H](CCCNC(=N)N)NC(=O)CNC(=O)[C@H]3CCCN3C1=O)C(=O)N[C@@H](CCC(N)=O)C(=O)N1CCC[C@H]1C(=O)NCC(=O)N[C@@H](Cc1c[nH]c3ccccc13)C(=O)N2 |  | Caco-2 |  |  | Papp A→B | 7.28 ×10⁻⁶ cm/s |
| C/C(N)=N/C(=N\S(=O)(=O)c1ccc(C(F)(F)F)cc1)N1C[C@H](c2ccccc2)C(c2ccc(Cl)cc2)=N1 |  | C57BL/6 mouse male, skeletal muscle | intravenous, 10 mg/kg | relative to: tissue AUC(0-last) over plasma | tissue/plasma ratio | ~2 |
| O=C(c1ccccc1)N1C(c2ccc(OCC3CCN(CCCF)C3)cc2)c2ccc(O)cc2CC12CC2 (stereo not shown) |  | C57BL/6J mice, plasma | oral, 25 mg/kg |  | AUC extrapolated percentage | 1.33% and 0.303% |

For quick reference, copied from above:
| SMILES | assay | system | setting | how to read | measurement | result |
| --- | --- | --- | --- | --- | --- | --- |
| COc1cccc(OC)c1-c1cc(C(=O)NC2(C(=O)O)C3CC4CC(C3)CC2C4)nn1-c1ccc(C(=O)N(C)CCCN(C)CCCN(C)C(=O)[C@H](CCCCNC(=O)[C@H](CC(C)C)NC(=O)C2OC2C(=O)O)NC(=O)CN2CCN(CC(=O)[O-])CCN(CC(=O)[O-])CCN(CC(=O)[O-])CC2)cc1C(C)C.[177Lu+3] (mixture of isomers) |  | mouse HT-29 xenograft | 72 h, biodistribution | relative to: tumour over small intestine | tumour-to-small intestine ratio | 26 |
| CN(C)S(=O)(=O)c1ccc(S(=O)(=O)N2CCC(n3c(=O)[nH]c4ccccc43)CC2)cc1 | HPLC | 20% Intralipid | 24 h, 20 °C |  | solubility | 50 µg/mL (≈ 108 µM) |
